Results gathered from unrelated publications.
Each numbered part is a random draw from the data of one study; scales do not carry over between parts.
UniProt Q9BUB5, sequence (whole entry, looked up): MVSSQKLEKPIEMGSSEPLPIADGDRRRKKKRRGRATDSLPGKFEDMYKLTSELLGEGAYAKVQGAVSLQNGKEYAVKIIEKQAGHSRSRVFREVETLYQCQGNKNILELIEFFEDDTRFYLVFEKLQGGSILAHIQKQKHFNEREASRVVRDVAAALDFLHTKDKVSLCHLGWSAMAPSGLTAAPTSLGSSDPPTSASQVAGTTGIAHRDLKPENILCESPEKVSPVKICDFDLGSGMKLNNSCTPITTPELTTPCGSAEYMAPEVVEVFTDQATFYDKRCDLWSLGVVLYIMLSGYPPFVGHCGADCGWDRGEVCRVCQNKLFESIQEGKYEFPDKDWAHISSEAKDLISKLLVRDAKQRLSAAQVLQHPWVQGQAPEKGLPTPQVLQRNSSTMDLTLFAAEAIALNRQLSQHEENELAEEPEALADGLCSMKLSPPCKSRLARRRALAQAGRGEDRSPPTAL
UniProt Q15366, sequence (1-183, looked up): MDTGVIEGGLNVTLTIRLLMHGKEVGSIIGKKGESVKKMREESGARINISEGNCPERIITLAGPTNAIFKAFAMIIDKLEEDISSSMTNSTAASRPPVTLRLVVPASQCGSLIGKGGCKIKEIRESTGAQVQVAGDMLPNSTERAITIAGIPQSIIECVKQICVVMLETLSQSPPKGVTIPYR

Sample 1
Target: Sox, HMG box (Pigoraptor chileana)
Technique: Spec-seq
Form: double-stranded DNA, one strand shown
Sample: in vitro
Concentration: not given
Notes: whole probe, mean of replicates
Relative to: not given
Direction: lower = stronger binding
Constant ends, left off below: GAGTCGTCTCGTCAGCAC … CCGTAGAGCACTCAGGTC
Construct (chain): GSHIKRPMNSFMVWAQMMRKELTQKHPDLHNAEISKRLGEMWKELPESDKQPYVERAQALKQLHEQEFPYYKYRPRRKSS
| Strand | relative binding energy [ln ratio] |
| --- | --- |
| CATATAC | -0.122 |
| CATCTAC | 0.632 |
| CATCAGC | 0.386 |
| CATCATT | 0.263 |
| TCATGTT | -0.235 |
| AAAGGTT | -2.09 |
| CATATAT | -0.0415 |
| ATAAGTT | -0.511 |

Sample 2
Target: RNA binding protein fox-1 homolog 2, RRM domain, GST-SBP tag (RBFOX2, Homo sapiens, UniProt O43251-10, residues 100-194)
Technique: RNA Bind-n-Seq
Form: RNA
Sample: in vitro
Concentration: 365 nM
Notes: natural RNA segment, single round, ends assumed
Relative to: no-protein control
Direction: higher = stronger binding
Constant ends, left off below: GGGAGUUCUACAGUCCGACGAUC … UGGAAUUCUCGGGUGCCAA
Construct (chain): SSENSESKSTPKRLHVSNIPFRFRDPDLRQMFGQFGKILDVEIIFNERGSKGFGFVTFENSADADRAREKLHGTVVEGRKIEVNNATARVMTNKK
| Strand | RBNS enrichment (R) |
| --- | --- |
| CUAAAUGGAAACUGUAGGUGGCUUCCUCUGAUCUGUCUGCCAGUGGGUGUUGCUGCCCUGCUUGUCAGCUCUGCAAAUGAGCGCUGCUCCCCAGCUUGCGCAGAGACGUG | 0.991 |
| GGUCUGUGAAGCUGCUGCCCCUGAGCUGGAGGGGGGUCUCAUUCUACAAAGAGAGAGGUGGCCCCCCUUUCUUGACCUCCUCCUCCUUCAAGCUCAAACACCACCUCCCU | 0.304 |
| UGUUAAGACAACUCUUGUGUACGCUAUGUUGAAGCUCAACAAAAAAGUCAUGGGACCACUUCUAGAAAUCUUUCAGCUGUCAGGCCUGUCAGUCUCAUGACAGUUUGUUG | 0.345 |
| AAAACCUUGAAGUGCUGUAUAGUGAAGUAUAAAUUAAUGUUUUAUUGAUUUGUGAAGAAUUUAAGACUAUUAUAUAAUUAUCUUGGUGGAUCUAUUUUAUGCAUGACCUU | 3.03 |
| CUUUGUACAUUUUUAUAUUAAAAAAAAAAAAAGACUAUUAAGGGACUUCAGAAUGUUGUAGGCCUCAUUAGAGCUUGUUCUCCAAAAACCUGCUUGAAAAAGGCAACGUG | 0.406 |
| GUCUACUUUUUUAAGCAGCAAAGUGUUCUGAGGAGUUGGUGUGUGAUGCCAAAGAGCUCAACGGGGCCUCUCAUGGUGAGCGUGGAUAGAUACGUGAUGUCUGGUCAUGU | 0.311 |
| AAAAUGGUGGCUUCAGCUCCAGCCCCUUUCCAAAAUUUUUCAACCCCACCCUGUUUGGAUUUUUAAUUAAAAACUAGUAGUUCUCUUGGUGUUAAAACACUUCUGUCCUG | 0.845 |
| GCUAUUUACCAGGGUAGAAAAAGGAGCUUACCUCCCACCUUUGGUCCUAAGUCCCUGCCCCCUCCCCUUCACACCAUAACUAGGUAACAGUUUGAUAACUAGGGAAGAAA | 0.263 |

Single results of other studies
| Molecule | target | test | test system | conditions | scale | measurement | value |
| --- | --- | --- | --- | --- | --- | --- | --- |
| AAAAAAAA (biotin) | Poly(rC)-binding protein 2, KH domains 1-2 (PCBP2, Homo sapiens, UniProt Q15366, residues 1-183) | protein domain microarray | RNA, in vitro | not given, poly(A) 8-mer RNA, whole probe, immobilized GST-fusion domains, most near background | relative to: GST loading signal, higher = stronger binding | signal ratio | 0.602 |
| Nc1nc(Nc2ccc(S(N)(=O)=O)cc2)nn1C(=S)Nc1c(F)cccc1F | MAP kinase-interacting serine/threonine-protein kinase 1 (MKNK1, Homo sapiens, UniProt Q9BUB5) | enzyme activity, inhibitor |  | 0.5 µM | relative to: control | remaining activity | 23.4% |
| PhoQ, residues 284 288 289 292 302 303 SLANIV | PhoP, residues 12 14 15 18 19 IQFRS (Escherichia coli, UniProt P23836) | Sort-seq, refers to: YFP reporter | E. coli | PhoQ-PhoP variant library, with: 10 µM Mg2+ | relative to: high Mg2+ state, higher = stronger signaling | fold induction | 16.2 |

Repeated from above (sample 2):
| Strand | RBNS enrichment (R) |
| --- | --- |
| AAAACCUUGAAGUGCUGUAUAGUGAAGUAUAAAUUAAUGUUUUAUUGAUUUGUGAAGAAUUUAAGACUAUUAUAUAAUUAUCUUGGUGGAUCUAUUUUAUGCAUGACCUU | 3.03 |
| GGUCUGUGAAGCUGCUGCCCCUGAGCUGGAGGGGGGUCUCAUUCUACAAAGAGAGAGGUGGCCCCCCUUUCUUGACCUCCUCCUCCUUCAAGCUCAAACACCACCUCCCU | 0.304 |
